Published values from different studies.
Values joined by “and” are separate records of one study, mostly repeats; a detail may differ. Numbers after ± are the reported error.
TOP2A: DNA topoisomerase 2-alpha (TOP2A, Homo sapiens, UniProt P11388)
Sequence of UniProt P11388 (whole entry, looked up): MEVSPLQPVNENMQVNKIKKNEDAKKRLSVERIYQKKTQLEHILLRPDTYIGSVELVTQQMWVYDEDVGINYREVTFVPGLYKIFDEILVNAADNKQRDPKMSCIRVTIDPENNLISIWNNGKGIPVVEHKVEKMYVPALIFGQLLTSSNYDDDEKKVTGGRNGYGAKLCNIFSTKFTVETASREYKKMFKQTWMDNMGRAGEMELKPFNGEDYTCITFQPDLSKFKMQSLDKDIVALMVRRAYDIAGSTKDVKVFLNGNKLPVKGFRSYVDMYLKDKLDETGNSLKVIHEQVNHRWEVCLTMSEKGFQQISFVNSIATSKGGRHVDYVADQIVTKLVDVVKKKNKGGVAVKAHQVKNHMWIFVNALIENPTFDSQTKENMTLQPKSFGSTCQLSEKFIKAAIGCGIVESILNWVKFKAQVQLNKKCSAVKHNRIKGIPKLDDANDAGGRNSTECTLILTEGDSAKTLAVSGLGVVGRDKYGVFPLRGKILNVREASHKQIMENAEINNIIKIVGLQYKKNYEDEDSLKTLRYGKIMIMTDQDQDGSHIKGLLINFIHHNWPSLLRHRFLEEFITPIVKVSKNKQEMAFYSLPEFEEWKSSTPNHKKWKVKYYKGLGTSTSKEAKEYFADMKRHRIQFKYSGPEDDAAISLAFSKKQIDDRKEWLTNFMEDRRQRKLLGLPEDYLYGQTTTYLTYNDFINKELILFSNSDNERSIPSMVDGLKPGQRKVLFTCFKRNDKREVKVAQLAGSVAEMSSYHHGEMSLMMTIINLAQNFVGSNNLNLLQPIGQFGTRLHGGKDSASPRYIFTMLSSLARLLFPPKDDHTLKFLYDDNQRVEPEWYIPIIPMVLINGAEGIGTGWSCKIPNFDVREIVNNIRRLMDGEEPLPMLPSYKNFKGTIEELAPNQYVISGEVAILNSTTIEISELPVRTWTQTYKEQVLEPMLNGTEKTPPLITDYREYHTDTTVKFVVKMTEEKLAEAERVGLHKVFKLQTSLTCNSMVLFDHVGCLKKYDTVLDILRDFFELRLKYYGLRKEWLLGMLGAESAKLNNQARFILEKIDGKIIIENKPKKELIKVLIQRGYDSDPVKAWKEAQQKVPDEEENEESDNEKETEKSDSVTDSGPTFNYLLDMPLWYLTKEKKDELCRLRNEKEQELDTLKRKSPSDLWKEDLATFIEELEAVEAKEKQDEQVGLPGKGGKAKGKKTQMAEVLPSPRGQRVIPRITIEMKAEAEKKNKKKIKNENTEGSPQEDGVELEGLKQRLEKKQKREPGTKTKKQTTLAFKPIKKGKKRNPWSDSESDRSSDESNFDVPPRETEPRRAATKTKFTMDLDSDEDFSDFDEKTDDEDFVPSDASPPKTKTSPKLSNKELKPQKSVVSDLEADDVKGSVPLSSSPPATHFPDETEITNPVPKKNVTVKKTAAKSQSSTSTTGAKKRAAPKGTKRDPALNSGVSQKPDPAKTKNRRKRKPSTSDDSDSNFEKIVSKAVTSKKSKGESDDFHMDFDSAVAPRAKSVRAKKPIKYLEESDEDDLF
BEST2: Bestrophin-2a (BEST2, Homo sapiens, UniProt Q8NFU1)
Sequence of UniProt Q8NFU1 (whole entry, looked up): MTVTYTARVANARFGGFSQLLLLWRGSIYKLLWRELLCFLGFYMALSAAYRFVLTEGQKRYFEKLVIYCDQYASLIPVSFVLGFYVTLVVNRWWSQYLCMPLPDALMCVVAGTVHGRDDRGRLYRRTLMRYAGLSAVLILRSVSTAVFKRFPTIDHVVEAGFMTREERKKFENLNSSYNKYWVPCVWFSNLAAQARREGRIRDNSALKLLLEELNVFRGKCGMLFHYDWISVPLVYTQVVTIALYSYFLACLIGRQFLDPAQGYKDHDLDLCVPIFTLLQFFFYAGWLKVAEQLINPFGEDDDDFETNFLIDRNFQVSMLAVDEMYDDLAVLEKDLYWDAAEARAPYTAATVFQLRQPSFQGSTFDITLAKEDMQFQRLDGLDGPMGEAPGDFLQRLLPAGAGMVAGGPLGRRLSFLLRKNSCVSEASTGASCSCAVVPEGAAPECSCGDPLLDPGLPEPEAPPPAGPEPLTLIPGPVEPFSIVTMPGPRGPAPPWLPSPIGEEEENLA
Cereblon/Ikaros: Cereblon/Ikaros (Homo sapiens, UniProt Q13422+Q96SW2)
Sequence of UniProt Q16774 (whole entry, looked up): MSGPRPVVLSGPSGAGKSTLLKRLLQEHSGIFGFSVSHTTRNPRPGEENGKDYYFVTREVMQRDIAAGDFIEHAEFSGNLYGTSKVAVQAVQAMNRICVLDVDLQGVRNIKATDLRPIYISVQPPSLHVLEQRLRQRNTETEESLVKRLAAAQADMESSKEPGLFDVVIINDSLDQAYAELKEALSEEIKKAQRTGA
Sequence of UniProt P51575 (whole entry, unmodified, looked up): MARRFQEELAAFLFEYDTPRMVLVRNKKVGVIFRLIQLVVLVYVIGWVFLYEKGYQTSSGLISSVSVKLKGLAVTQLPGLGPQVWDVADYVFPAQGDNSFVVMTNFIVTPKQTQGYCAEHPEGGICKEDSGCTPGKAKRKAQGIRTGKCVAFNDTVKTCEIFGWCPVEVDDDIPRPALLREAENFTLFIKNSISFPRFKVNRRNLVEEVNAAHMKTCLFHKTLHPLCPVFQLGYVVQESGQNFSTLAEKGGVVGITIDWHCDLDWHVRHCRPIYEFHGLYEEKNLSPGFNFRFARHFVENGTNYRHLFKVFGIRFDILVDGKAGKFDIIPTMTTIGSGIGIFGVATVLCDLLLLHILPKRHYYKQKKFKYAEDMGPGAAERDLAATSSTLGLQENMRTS
Sequence of UniProt Q80VM9 (whole entry, looked up): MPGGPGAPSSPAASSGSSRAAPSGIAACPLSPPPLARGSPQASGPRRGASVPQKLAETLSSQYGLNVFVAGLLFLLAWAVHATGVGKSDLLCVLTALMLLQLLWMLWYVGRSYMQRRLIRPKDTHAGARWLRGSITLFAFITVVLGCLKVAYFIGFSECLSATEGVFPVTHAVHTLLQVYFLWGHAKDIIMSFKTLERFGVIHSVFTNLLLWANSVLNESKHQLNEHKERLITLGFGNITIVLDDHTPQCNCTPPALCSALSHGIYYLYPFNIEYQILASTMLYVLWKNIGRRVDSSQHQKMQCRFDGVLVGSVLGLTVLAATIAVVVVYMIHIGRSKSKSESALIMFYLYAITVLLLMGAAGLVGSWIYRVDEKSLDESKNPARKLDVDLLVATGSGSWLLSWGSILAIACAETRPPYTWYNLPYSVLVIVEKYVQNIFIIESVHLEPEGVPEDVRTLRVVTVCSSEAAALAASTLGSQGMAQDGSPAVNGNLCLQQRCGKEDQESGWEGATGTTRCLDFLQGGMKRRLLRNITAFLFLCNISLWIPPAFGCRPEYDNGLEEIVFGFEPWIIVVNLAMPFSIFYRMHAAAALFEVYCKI
Sequence of UniProt Q9NZQ7 (whole entry, looked up): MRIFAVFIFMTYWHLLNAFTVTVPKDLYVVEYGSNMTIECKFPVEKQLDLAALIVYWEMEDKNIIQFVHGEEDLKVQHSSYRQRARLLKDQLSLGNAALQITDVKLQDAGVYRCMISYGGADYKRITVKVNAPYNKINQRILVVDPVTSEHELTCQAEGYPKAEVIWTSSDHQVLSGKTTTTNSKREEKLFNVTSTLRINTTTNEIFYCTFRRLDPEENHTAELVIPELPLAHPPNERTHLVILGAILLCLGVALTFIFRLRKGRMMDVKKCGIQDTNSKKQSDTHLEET
Sequence of UniProt Q96SW2 (whole entry, looked up): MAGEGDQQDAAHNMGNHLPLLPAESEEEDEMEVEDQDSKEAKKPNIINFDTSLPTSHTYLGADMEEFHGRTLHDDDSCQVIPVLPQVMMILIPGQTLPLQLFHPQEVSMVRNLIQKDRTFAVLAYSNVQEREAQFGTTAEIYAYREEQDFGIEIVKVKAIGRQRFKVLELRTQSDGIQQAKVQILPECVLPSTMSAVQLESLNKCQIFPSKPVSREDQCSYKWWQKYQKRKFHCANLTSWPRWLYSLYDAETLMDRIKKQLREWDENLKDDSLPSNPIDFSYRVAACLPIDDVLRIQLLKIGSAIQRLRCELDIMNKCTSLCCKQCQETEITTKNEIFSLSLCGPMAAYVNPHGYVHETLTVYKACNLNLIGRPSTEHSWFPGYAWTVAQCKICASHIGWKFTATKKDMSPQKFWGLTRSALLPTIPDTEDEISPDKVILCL
Sequence of UniProt Q13422 (whole entry, looked up): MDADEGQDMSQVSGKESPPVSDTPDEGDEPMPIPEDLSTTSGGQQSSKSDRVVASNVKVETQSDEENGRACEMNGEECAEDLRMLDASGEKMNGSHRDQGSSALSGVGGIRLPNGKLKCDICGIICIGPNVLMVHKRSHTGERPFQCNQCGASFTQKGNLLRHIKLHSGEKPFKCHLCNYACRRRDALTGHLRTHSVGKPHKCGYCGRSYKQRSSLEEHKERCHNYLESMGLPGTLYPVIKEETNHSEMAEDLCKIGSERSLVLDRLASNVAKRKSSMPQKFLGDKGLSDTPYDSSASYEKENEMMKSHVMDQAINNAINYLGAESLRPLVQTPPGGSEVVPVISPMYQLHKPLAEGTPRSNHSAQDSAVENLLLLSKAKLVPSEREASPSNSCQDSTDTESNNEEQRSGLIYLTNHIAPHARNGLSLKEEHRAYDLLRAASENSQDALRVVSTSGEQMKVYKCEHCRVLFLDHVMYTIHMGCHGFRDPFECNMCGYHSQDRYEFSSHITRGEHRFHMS
Sequence of UniProt P08246 (whole entry, looked up): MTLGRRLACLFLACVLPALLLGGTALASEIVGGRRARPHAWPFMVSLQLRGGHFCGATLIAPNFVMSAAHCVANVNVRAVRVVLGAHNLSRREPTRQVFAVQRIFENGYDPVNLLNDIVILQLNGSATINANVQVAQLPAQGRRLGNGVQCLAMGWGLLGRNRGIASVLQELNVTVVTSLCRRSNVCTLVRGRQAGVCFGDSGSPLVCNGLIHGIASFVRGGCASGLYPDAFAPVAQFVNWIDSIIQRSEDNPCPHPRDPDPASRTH
Sequence of UniProt P00441 (whole entry, unmodified, looked up): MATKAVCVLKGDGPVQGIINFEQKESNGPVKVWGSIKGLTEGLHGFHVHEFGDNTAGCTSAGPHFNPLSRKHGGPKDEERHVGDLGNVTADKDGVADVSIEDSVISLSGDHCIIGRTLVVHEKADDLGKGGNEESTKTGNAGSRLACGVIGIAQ

O=c1nc(SCc2cc(F)cc(C(F)(F)F)c2)nc(SCc2ccc3nc(Cl)ccc3c2)[nH]1  linear DNA (TOP2A; DNA cleavage; 7.8 µM, replicate 2): 0%
Cc1ccc(C(=O)Nc2ccc3ccccc3c2)o1  reversal potential (Otop1 (Mus musculus, UniProt Q80VM9); ion current, whole-cell voltage ramp; 10 µM, added: K+ bath solution): 55.4 mV and 62.5 mV and 59.4 mV and 51.3 mV and 56.4 mV
CCCCN1/C(=C/C=C/c2sc3ccc(Br)cc3[n+]2CCCC)Sc2ccc(Br)cc21.[I-]  Hill coefficient (PRMT6 (Homo sapiens, UniProt Q96LA8); inhibitor, filter binding; added: R4 peptide substrate): 1.39
Cc1cccc(N2CC(C(=O)O)CC2=O)c1 (centres unmarked)  log fold enrichment (Histone-lysine N-methyltransferase SETDB1, triple tudor domain (SETDB1, Homo sapiens, UniProt Q15047); binding, affinity selection mass spectrometry; relative to: other proteins in batch): 0.0184
Nc1ncnc2c1ncn2[C@@H]1O[C@H](COP(=O)(O)CP(=O)(O)OP(=O)(O)O)[C@@H](O)[C@H]1O  specific binding (P2X purinoceptor 1 (P2RX1, Homo sapiens, UniProt P51575, D170A); saturation binding; HEK293; 130 nM): 574 CCPM and 371 CCPM and 452 CCPM
Oc1ccccc1-c1n[nH]cc1-c1ccnc2ccccc12  log2 fold change (Casein kinase I HRR25 (Candida albicans, UniProt Q59S64); kinase binding, MIB/MS competition; Candida albicans lysate; 10 µM; relative to: DMSO, negative = stronger binding): 0.11
Fc1cc(CCOCCCCCc2ccccc2)cc2nc[nH]c12  reduction in Vmax (ATP2A2 (Sus scrofa, UniProt P11607); ATPase activity, inhibitor; pig microsomes; concentration not given; relative to: vehicle): ~60%
CCOC(=O)C1=C(CN2CCc3ccccc32)NC(=O)NC1c1ccccc1OC(F)F (centres unmarked)  SPR response (AASS, SDH domain (Homo sapiens, UniProt Q9UDR5); binding, surface plasmon resonance; 1.667 µM): 4.67 RU
O=c1cc(-c2ccc(OS(=O)(=O)[O-])cc2)oc2cc(OS(=O)(=O)[O-])cc(OCc3cccc(COc4cc(OS(=O)(=O)[O-])cc5oc(-c6ccc(OS(=O)(=O)[O-])cc6)cc(=O)c45)n3)c12.[Na+].[Na+].[Na+].[Na+]  Vmax (Neutrophil elastase (ELANE, Homo sapiens, UniProt P08246); 250 nM, added: chromogenic substrate): 38.6 ± 1 mAU/min
Nc1ncnc2c1ncn2[C@@H]1O[C@H](C[C@@H](N)CC[C@H](N)C(=O)O)[C@@H](O)[C@H]1O  cooperativity factor σ (O-methyltransferase (Sorghum bicolor, UniProt A0A1B6PFV1); biolayer interferometry; added: saturating RSV): 8.88
NCCCCC(=O)O  normalised MST signal (SLC6A6 (Homo sapiens, UniProt P31641, G62A); binding, microscale thermophoresis; 488 nM, room temperature, added: 50 nM labelled protein; higher = more binding): -0.0175
O=c1nc(SCc2cc(F)cc(C(F)(F)F)c2)nc(SCc2nc3ccccc3[nH]2)[nH]1  mean decatenated DNA (TOP2A; decatenation; 7.8 µM): 100%
CCOc1cccc(C2CC(=O)Nc3c2c(C)nn3-c2ccc3nncn3n2)c1 (centres unmarked)  SPR response (DDB1 (Homo sapiens, UniProt Q16531); binding, surface plasmon resonance; 1.88 µM): 2.36 RU
O=c1nc(SCc2cc(F)cc(C(F)(F)F)c2)nc(SCc2csc3ccc(Cl)cc23)[nH]1  relaxed DNA (TOP2A; DNA relaxation; 31.25 µM, replicate 1): 0%
C=CC(=O)N1CCC(COCC(=O)N2CCN(c3nc(-c4cnc(N)nc4C(F)F)nc(N4CCOC[C@@H]4C)n3)CC2)CC1  remaining binding (MAP4K3 (Homo sapiens, UniProt Q8IVH8); KINOMEscan; 1 µM; relative to: DMSO control): 89%
CC(=C/C(=O)O)/C=C/C=C(\C)C1C=C2C(C)(C)CCCC2(C)O1 (centres unmarked)  plasma membrane localization (Rhodopsin (RHO, Homo sapiens, UniProt P08100, T17M); immunostaining, item: opsin; COS-7 transfected; 1.00 µM, unit not given; relative to: surface over total stained cells): 0.25
CN[C@@H](C)C(=O)N[C@H]1CN(C(=O)CC(C)C)CC[C@H]2CC[C@@H](C(=O)NC(c3ccccc3)c3ccccc3)N2C1=O  protein level (BIRC2 (Homo sapiens, UniProt Q13490); protein degradation, western blot; mouse xenograft, tumour; oral, 100 mg/kg): decreased
[Ca+2]  Ca2+ K1/2 limit (Cone cGMP-gated channel (Morone saxatilis, UniProt Q3I0N1+Q3I0N2); channel current, modified Michaelis-Menten fit; striped bass (Morone saxatilis), cone outer segment; added: cGMP): 857 nM and ~860 nM
N[C@@H](CCC(=O)O)C(=O)O  current density (BEST2; whole-cell patch clamp; HEK293 transfected; concentration not given, compound external permeant anion, at 80 mV): 27.3 pA/pF and 26.2 pA/pF and 38.7 pA/pF and 39.4 pA/pF and 39 pA/pF
C[C@@H](O)[C@H](NC(=O)[C@H](Cc1ccc(O)cc1)NC(=O)[C@H](Cc1ccc(O)cc1)NC(=O)[C@H](CO)NC(=O)[C@H](CCCNC(=N)N)NC(=O)[C@H](Cc1c[nH]cn1)NC(=O)[C@@H](N)Cc1c[nH]c2ccccc12)C(=O)N[C@@H](Cc1c[nH]c2ccccc12)C(=O)N[C@@H](CC(N)=O)C(N)=O  fold reduction of blocking (Programmed cell death 1 ligand 1, with PD-1 (CD274, Homo sapiens, UniProt Q9NZQ7); PD-1 binding, inhibitor, competitive ELISA; 2.5 µM; relative to: PBS over 2% BSA): 22 fold
NC(=O)C1CCCN1C(=O)Cc1ccc(N(CCCO)Cc2cnc3nc(N)nc(N)c3n2)cc1 (centres unmarked)  partition index (Pteridine reductase 1 (Leishmania major, UniProt Q01782); hDHFR weight 10; relative to: LmPTR1, LmDHFR over hDHFR, 1.0 selective, 0.0 non-selective): 0.99
C=CC(=O)N1CCC[C@@H](n2nc(-c3ccc(Oc4ccccc4)cc3)c3c(N)ncnc32)C1  remaining activity (FES (Homo sapiens, UniProt P07332); 1 µM): 77.4%
O=C(O)c1ccc(O)cc1  current density (BEST2; whole-cell patch clamp; HEK293 transiently expressing channel; concentration not given, membrane potential -20 mV): -49.4 pA/pF and -35.5 pA/pF and -26.6 pA/pF and -48.6 pA/pF and -64.8 pA/pF and -25.6 pA/pF and -52.1 pA/pF
Nc1ncc2ncn([C@@H]3O[C@@H]4COP(=O)(O)O[C@H]4[C@H]3O)c2n1  relative binding affinity (anti-cGMP antibody; antibody binding, competitive cGMP EIA; concentration not given, acetylated samples; relative to: EC50 cGMP over EC50 cpd, higher = stronger binding): 0.0076
O=c1nc(SCc2cc(F)cc(C(F)(F)F)c2)nc(SCc2cccc(C(F)(F)F)c2)[nH]1  mean decatenated DNA (TOP2A; decatenation; 15.6 µM): 34.5%
CCC(C)(NCCc1ccc(OC)cc1)c1cccc(NC2=CC(=O)N(C3CCC(=O)NC3=O)C2=O)c1 (centres unmarked)  Dmax (Cereblon/Ikaros; protein degradation, degrader, HiBiT luminescence; Jurkat): 74%
Nc1nc2c(ncn2[C@@H]2O[C@H](COP(=O)(O)O)[C@@H](O)[C@H]2O)c(=O)[nH]1  reaction velocity (GUK1 (Homo sapiens, UniProt Q16774); enzyme activity, NADH-coupled; 1000 µM, added: KCl 50 mM): 0.118 µM/s and 0.116 µM/s and 0.115 µM/s
CC(=O)c1cnc2ccc(-c3cc(Cl)c(O)c(Cl)c3)nc2c1N[C@H]1CC[C@H](CN(C)C)CC1  Hill slope (PKN1 (Homo sapiens, UniProt Q16512); inhibitor): -0.883
O=c1nc(SCc2cc(F)cc(C(F)(F)F)c2)nc(SCc2ccc3ncsc3c2)[nH]1  mean decatenated DNA (TOP2A; decatenation; 7.8 µM): 100%
COc1ccc(C(=O)/C=C/c2cccc(-c3cccc(-c4ccc(CNCCN)c(OC)n4)c3C)c2)cc1  degradation (CD274 (Homo sapiens, UniProt Q9NZQ7); degrader, western blot; HL-60; 1 µM): < 5%
CC(C)c1ccc(CSc2nc(SCc3ccc4sccc4c3)[nH]c(=O)n2)cc1  decatenated DNA (TOP2A; decatenation; 15.6 µM, replicate 1): 4.52%
Nc1ccn([C@H]2C[C@H](O)[C@@H](COP(=O)(O)OP(=O)(O)OP(=O)(O)O)O2)c(=O)n1  Vmax (RNA-directed RNA polymerase L (Human respiratory syncytial virus A, UniProt P28887); nucleotide incorporation, substrate): 0.85 fraction per time
Cc1ccc(NC(=O)/C=C/c2cccs2)cc1  Hill coefficient (Chrna7 (Rattus norvegicus, UniProt Q05941); ion current, positive allosteric modulator; added: acetylcholine 30 µM): 1.2 ± 0.2
[O-][S+]1CCCCS1 (centres unmarked)  SOD1 monomer fraction (SOD1 (Homo sapiens, UniProt P00441, G94A); LC-MS; human whole blood; 10000 µM, 1 h, 37 °C): 0%
CC1=C(/C=C/C(C)=C/C=C/C(C)=C/C=O)C(C)(C)CCC1  relative kon (Rhodopsin (RHO, Bos taurus, UniProt P02699, T94I); retinal entry, Trp FRET; lipid bicelles; 28 °C, T94I mutant; relative to: wild-type rhodopsin): 0.823 ± 0.3
CC[S+]([O-])c1nc(-c2ccccc2)cc(C(F)(F)F)n1 (centres unmarked)  Tm1 (KPNB1 (Homo sapiens, UniProt Q14974); thermal shift; 30 µM, 2 h): 40.7 °C
Cc1nc(CSc2nc(SCc3ccc(C(F)(F)F)cc3)nc(=O)[nH]2)cs1  decatenated DNA (TOP2A; decatenation; 7.8 µM, replicate 1): 100%
COc1cccc2c(-c3ccc(C)cc3)cc(C(=O)Nc3ccc(C(=O)O)cc3)nc12  IC50 (RARB (Homo sapiens, UniProt P10826); reporter gene, antagonist; up to 3300 nM, added: ATRA 4 nM (EC80)): inactive
C=CC(=O)c1ccc2ccccc2c1  potency reduction (TGM2 (Homo sapiens, UniProt P21980); enzyme activity, inhibitor; concentration not given, added: DTT; relative to: without DTT over with DTT): ~4000 fold
CCC(C)(NCCc1cc(C(F)(F)F)cc(C(F)(F)F)c1)c1cccc(NC2=CC(=O)N(C3CCC(=O)NC3=O)C2=O)c1 (centres unmarked)  Dmax (Cereblon/Ikaros; protein degradation, degrader, HiBiT luminescence; Jurkat): 60%
Cc1n[nH]c2ccc(-c3cc(OC[C@@H](N)Cc4ccccc4)cnc3-c3ccoc3)cc12  log2 fold change (Mitogen-activated protein kinase MKC1 (MKC1, Candida albicans, UniProt P43068); kinase binding, competitor, MIB/MS competition, item: MKC1; Candida albicans cell lysate; 100 nM; relative to: DMSO): -0.00282

A few entries again:
Oc1ccccc1-c1n[nH]cc1-c1ccnc2ccccc12  log2 fold change (Casein kinase I HRR25 (Candida albicans, UniProt Q59S64); kinase binding, MIB/MS competition; Candida albicans lysate; 10 µM; relative to: DMSO, negative = stronger binding): 0.11
Fc1cc(CCOCCCCCc2ccccc2)cc2nc[nH]c12  reduction in Vmax (ATP2A2 (Sus scrofa, UniProt P11607); ATPase activity, inhibitor; pig microsomes; concentration not given; relative to: vehicle): ~60%
CCOC(=O)C1=C(CN2CCc3ccccc32)NC(=O)NC1c1ccccc1OC(F)F (centres unmarked)  SPR response (AASS, SDH domain (Homo sapiens, UniProt Q9UDR5); binding, surface plasmon resonance; 1.667 µM): 4.67 RU
O=c1cc(-c2ccc(OS(=O)(=O)[O-])cc2)oc2cc(OS(=O)(=O)[O-])cc(OCc3cccc(COc4cc(OS(=O)(=O)[O-])cc5oc(-c6ccc(OS(=O)(=O)[O-])cc6)cc(=O)c45)n3)c12.[Na+].[Na+].[Na+].[Na+]  Vmax (Neutrophil elastase (ELANE, Homo sapiens, UniProt P08246); 250 nM, added: chromogenic substrate): 38.6 ± 1 mAU/min
Nc1ncnc2c1ncn2[C@@H]1O[C@H](C[C@@H](N)CC[C@H](N)C(=O)O)[C@@H](O)[C@H]1O  cooperativity factor σ (O-methyltransferase (Sorghum bicolor, UniProt A0A1B6PFV1); biolayer interferometry; added: saturating RSV): 8.88
NCCCCC(=O)O  normalised MST signal (SLC6A6 (Homo sapiens, UniProt P31641, G62A); binding, microscale thermophoresis; 488 nM, room temperature, added: 50 nM labelled protein; higher = more binding): -0.0175
